Measured values gathered from unrelated publications.
Compare with care: the assays were run in different laboratories. “And” joins repeats or separate records; there may be more than shown. Numbers after ± are the reported error.
USP33 ZnF-UBD domain: Ubiquitin carboxyl-terminal hydrolase 33, ZnF-UBD domain (USP33, Homo sapiens, UniProt Q8TEY7)
Sequence of UniProt Q8TEY7 (whole entry, looked up): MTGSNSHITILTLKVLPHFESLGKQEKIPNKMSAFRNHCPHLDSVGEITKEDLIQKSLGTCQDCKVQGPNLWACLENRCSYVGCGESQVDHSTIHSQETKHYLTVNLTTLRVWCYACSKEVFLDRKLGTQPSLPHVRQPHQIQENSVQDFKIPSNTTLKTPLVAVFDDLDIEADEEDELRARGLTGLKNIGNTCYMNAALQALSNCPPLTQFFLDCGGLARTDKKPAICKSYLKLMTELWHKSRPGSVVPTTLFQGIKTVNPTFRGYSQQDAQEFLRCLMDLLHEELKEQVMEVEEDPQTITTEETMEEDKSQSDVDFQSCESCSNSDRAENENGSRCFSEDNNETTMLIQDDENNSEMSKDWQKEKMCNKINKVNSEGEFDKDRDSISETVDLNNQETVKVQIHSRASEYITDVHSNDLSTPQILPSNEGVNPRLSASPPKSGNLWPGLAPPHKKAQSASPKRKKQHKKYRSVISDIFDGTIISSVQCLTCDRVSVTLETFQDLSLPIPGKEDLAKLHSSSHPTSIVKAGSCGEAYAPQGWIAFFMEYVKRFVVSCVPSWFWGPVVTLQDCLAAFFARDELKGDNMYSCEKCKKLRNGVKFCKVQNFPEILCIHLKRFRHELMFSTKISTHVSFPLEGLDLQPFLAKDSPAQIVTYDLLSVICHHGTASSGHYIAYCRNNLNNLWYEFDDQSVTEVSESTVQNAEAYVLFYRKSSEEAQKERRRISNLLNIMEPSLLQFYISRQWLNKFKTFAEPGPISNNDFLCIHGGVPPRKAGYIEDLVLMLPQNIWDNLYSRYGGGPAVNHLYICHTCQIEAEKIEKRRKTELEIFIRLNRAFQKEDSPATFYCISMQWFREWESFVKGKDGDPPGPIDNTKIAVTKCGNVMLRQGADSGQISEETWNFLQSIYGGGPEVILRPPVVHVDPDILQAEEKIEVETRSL
Sequence of UniProt P39146 (whole entry, unmodified, looked up): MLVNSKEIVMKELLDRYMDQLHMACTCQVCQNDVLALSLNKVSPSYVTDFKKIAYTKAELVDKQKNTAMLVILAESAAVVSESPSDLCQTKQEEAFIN
Sequence of UniProt Q16774 (whole entry, unmodified, looked up): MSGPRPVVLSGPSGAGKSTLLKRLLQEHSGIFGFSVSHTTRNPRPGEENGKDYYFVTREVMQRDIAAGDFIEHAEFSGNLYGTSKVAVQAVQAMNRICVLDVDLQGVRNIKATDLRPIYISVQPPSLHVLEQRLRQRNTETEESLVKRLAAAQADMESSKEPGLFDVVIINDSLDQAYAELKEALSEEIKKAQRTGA
Sequence of UniProt P07949 (whole entry, looked up): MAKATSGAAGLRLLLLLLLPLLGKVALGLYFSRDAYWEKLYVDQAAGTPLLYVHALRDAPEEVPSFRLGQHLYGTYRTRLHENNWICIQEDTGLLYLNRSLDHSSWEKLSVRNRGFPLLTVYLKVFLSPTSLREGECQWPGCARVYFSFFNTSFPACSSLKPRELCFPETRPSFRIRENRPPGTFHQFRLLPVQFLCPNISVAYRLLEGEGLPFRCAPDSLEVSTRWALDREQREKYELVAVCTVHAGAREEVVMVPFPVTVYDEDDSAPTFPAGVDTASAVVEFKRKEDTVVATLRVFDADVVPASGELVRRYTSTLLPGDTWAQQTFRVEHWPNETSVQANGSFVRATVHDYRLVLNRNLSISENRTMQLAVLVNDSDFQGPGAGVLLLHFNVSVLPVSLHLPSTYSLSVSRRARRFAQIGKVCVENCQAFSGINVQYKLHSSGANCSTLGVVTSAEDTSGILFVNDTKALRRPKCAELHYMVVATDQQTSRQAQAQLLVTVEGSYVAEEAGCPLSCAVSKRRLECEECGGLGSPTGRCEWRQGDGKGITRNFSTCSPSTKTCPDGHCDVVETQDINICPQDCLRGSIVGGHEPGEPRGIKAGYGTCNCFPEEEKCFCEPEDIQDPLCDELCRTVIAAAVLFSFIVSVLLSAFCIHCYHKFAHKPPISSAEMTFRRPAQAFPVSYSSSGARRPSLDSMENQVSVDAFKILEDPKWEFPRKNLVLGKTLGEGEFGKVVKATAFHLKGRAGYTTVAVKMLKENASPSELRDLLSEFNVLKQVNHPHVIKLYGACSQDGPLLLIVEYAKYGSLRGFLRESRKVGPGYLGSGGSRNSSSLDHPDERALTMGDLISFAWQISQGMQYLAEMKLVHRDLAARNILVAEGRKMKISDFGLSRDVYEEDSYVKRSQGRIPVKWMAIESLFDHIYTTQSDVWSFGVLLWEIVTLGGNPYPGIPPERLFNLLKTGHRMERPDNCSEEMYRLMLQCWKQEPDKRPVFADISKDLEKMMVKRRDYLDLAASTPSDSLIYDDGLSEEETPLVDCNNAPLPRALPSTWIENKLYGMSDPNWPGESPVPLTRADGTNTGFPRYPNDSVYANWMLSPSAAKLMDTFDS
Sequence of UniProt P48730 (whole entry, looked up): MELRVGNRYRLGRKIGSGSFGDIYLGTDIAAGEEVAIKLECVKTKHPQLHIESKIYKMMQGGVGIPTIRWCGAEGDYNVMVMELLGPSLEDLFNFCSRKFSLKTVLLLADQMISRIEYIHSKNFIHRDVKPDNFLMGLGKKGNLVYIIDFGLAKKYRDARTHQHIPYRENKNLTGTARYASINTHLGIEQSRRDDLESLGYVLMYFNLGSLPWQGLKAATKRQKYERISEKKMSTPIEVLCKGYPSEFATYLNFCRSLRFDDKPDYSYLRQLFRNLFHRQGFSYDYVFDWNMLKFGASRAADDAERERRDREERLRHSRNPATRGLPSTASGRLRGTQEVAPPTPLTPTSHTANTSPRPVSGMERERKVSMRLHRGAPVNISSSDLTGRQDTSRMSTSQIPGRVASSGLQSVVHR
Sequence of UniProt B9K712 (whole entry, looked up): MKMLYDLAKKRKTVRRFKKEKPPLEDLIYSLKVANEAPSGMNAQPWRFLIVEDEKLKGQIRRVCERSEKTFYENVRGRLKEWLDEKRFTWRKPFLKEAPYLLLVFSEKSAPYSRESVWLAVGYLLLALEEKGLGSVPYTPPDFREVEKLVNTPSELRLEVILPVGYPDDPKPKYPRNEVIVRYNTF
Sequence of UniProt P37231 (whole entry, looked up): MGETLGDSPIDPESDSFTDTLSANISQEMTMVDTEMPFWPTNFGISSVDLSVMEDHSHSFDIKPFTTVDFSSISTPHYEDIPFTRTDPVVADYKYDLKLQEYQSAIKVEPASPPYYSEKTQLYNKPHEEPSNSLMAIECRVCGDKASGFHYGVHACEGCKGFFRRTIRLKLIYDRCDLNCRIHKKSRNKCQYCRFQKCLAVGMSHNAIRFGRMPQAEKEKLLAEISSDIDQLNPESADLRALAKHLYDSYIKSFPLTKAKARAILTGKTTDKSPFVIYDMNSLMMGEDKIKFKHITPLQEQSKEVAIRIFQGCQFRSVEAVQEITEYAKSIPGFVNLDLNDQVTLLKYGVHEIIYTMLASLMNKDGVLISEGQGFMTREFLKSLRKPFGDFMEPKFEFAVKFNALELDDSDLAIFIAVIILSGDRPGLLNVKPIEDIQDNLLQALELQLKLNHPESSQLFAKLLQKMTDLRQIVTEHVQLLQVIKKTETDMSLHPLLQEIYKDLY

With `Nc1ncnc2c1ncn2[C@@H]1O[C@H](CO[P@](=O)(O)O[P@](=O)(O)O[P@@](=O)(O)S)[C@@H](O)[C@H]1O` the Kd was 11 ± 3 µM (GUK1, part: GMP-bound (Homo sapiens, UniProt Q16774); binding, ITC; together with: ADP).
For `O=C(O)CCC(=O)c1ccc2c(c1)CCC(=O)N2`, the Kd was > 1000 µM (USP33 ZnF-UBD domain).
For `Cc1cc(Nc2cc3ncccc3c(N[C@@H]3C[C@H]4CC[C@@H](C3)N4CCC#N)n2)n[nH]1`, the Kd was 0.042 µM (Proto-oncogene tyrosine-protein kinase receptor Ret (RET, Homo sapiens, UniProt P07949); binding, KINOMEscan).
For `OC[C@H]1OC(O)[C@H](O)[C@@H](O)[C@@H]1O` (stereo partly shown), the Kd was > 2000 µM (Krueppel-like factor 4 (KLF4, Homo sapiens, UniProt O43474); binding, microscale thermophoresis).
`Nc1ncnc2c1ncn2[C@@H]1O[C@H](COP(=O)(O)OP(=O)(O)O)[C@@H](O)[C@H]1O` gave a Kd of > 200 µM (GUK1 (Homo sapiens, UniProt Q16774, K17A); binding, ITC; 25 °C, together with: GMP).
The Kd of `Nc1ncnc2c1ncn2[C@@H]1O[C@H](COP(=O)(O)OP(=O)(O)O)[C@@H](O)[C@H]1O` is reported as 2 ± 1 µM (Creatine kinase U-type, mitochondrial (CKMT1A, Homo sapiens, UniProt P12532, E265Q); microscale thermophoresis; pH 8.5, together with: creatine + nitrate).
The Kd of `OC[C@H]1O[C@H](O[C@H]2[C@H](O)[C@@H](O)[C@@H](O[C@H]3[C@H](O)[C@@H](O)[C@@H](O[C@H]4[C@H](O)[C@@H](O)C(O)O[C@@H]4CO)O[C@@H]3CO)O[C@@H]2CO)[C@H](O)[C@@H](O)[C@@H]1O` (stereo partly shown) is reported as 1.11 ± 0.06 µM (Uncharacterized protein (Staphylococcus aureus, UniProt Q2G1E9); isothermal titration calorimetry; 25 °C, single-site fit).
The Kd of `O=C(O)COc1cnc2ccccc2n1` is reported as > 1000 µM (USP33 ZnF-UBD domain).
With `N[C@@H](Cc1ccc(O)c(I)c1)C(=O)O` the Kd was 410 ± 20 µM (Iodotyrosine deiodinase, split at 68–92 (IYD, Thermotoga neapolitana, UniProt B9K712); fluorescence quenching; 25 °C, oxidized enzyme).
`Nc1ncnc2c1ncn2[C@@H]1O[C@@H]2COP(=O)(O)O[C@H]3[C@@H](O)[C@H](n4cnc5c(N)ncnc54)O[C@@H]3COP(=O)(O)O[C@H]2[C@H]1O` gave a Kd of 83.3 ± 73.1 µM (Competence protein ComFB (comFB, Bacillus subtilis, UniProt P39146)).
`O=C(O)CCc1nc2ccccc2c2nc(Cc3ccccc3)nn12` has a Kd of > 1000 µM (USP33 ZnF-UBD domain).
With `N[C@@H](CO)C(=O)O` the Kd was 0.00591 µM and 0.00679 µM (Uncharacterized protein (Pelagibacter ubique, UniProt Q4FM26); isothermal titration calorimetry; Candidatus Pelagibacter ubique).
The Kd of `O=C(O)Cn1cc2ccccc2n1` is reported as 268 µM (USP33 ZnF-UBD domain).
For `N[C@@H](CCC(=O)O)C(=O)O`, the Kd was 0.00067 µM and 0.00053 µM (Uncharacterized protein (Pelagibacter ubique, UniProt Q4FM26); binding, competition isothermal titration calorimetry; Candidatus Pelagibacter ubique; together with: phenylalanine competitor).
`O=C(O)CCn1c(=O)oc2ccccc21` gave a Kd of > 1000 µM (USP33 ZnF-UBD domain).
`Nc1nc2c(ncn2[C@@H]2O[C@@H]3CO[P@](=O)(O)O[C@H]4[C@@H](O)[C@H](n5cnc6c(=O)[nH]c(N)nc65)O[C@@H]4CO[P@](=O)(O)O[C@H]3[C@H]2O)c(=O)[nH]1` has a Kd of 12.6 ± 0.3 µM (Competence protein ComFB (comFB, Bacillus subtilis, UniProt P39146, D33A)).
For `O=C(Nc1ccccc1)c1cc([N+](=O)[O-])ccc1Cl`, the Kd was 0.264 µM (Peroxisome proliferator-activated receptor gamma, with RXRα (PPARG, Homo sapiens, UniProt P37231); NCoR peptide recruitment, fluorescence anisotropy; LBD with RXRα, together with: FITC-NCoR 2263 peptide).
The Kd of `Nc1nc2c(ncn2[C@@H]2O[C@H](COP(=O)(O)OP(=O)(O)OP(=O)(O)O)[C@@H](O)[C@H]2O)c(=O)[nH]1` is reported as ~64 µM (BisD (Pseudomonas knackmussii); binding, isothermal titration calorimetry).
`Nc1ncnc2c1ncn2[C@@H]1O[C@H](CO[P@](=O)(O)O[P@](=O)(O)O[P@@](=O)(O)S)[C@@H](O)[C@H]1O` gave a Kd of 39.4 ± 8.8 µM (uncharacterized protein (Thermomonospora curvata, UniProt D1ABX1); isothermal titration calorimetry; pH 7.5, 25 °C).
With `c1ccc2[nH]ccc2c1` the Kd was 12.1 ± 3.17 µM (IBR region (Acinetobacter baumannii); microscale thermophoresis).
`C[C@H]1O[C@H](O[C@H]2[C@H](O)[C@@H](O)[C@@H](O[C@H]3[C@H](O)[C@@H](O)C(O)O[C@@H]3CO)O[C@@H]2CO)[C@H](O)[C@@H](O)[C@@H]1N[C@H]1C=C(CO)[C@@H](O)[C@H](O)[C@H]1O` (stereo partly shown) gave a Kd of 1.89 ± 0.27 µM (Uncharacterized protein (Staphylococcus aureus, UniProt Q2G1E9); isothermal titration calorimetry; 25 °C, single-site fit).
`O=c1nc2[nH][nH]cc-2c(=O)[nH]1` — result for Kd: “no binding” (Casein kinase I isoform delta (CSNK1D, Homo sapiens, UniProt P48730); surface plasmon resonance; up to 50 µM).
The Kd of `O=C(O)CCn1cnc2ccccc21` is reported as > 1000 µM (USP33 ZnF-UBD domain).
`N[C@@H](Cc1ccccc1)C(=O)O` has a Kd of 5.53 µM and 5.54 µM and 4.29 µM and 2.48 µM and 4.01 µM and 3.69 µM (Uncharacterized protein (Pelagibacter ubique, UniProt Q4FM26); isothermal titration calorimetry; Candidatus Pelagibacter ubique).
With `O=C(O)CCC(=O)Nc1cccc2ccccc12` the Kd was > 1000 µM (USP33 ZnF-UBD domain).
`NC[C@@H]1O[C@H](O[C@H]2[C@@H](O)[C@H](O[C@@H]3[C@@H](O)[C@H](N)C[C@H](N)[C@H]3O[C@H]3O[C@H](CN)[C@@H](O)[C@H](O)[C@H]3N)O[C@@H]2CO)[C@H](N)[C@@H](O)[C@@H]1O` gave a Kd of 1.45 µM ((CCUG)10 RNA; SPR).
For `OC[C@H]1O[C@H](O[C@H]2[C@H](O)[C@@H](O)[C@@H](O[C@H]3[C@H](O)[C@@H](O)[C@@H](O[C@H]4[C@H](O)[C@@H](O)[C@@H](O[C@H]5[C@H](O)[C@@H](O)[C@@H](O[C@H]6[C@H](O)[C@@H](O)C(O)O[C@@H]6CO)O[C@@H]5CO)O[C@@H]4CO)O[C@@H]3CO)O[C@@H]2CO)[C@H](O)[C@@H](O)[C@@H]1O` (stereo partly shown), the Kd was 1.4 ± 0.06 µM (Uncharacterized protein (Staphylococcus aureus, UniProt Q2G1E9); isothermal titration calorimetry; 25 °C, single-site fit).
The Kd of `Cc1ccc(C(=O)O)cc1S(=O)(=O)Nc1cccc(C(=O)CCC(=O)O)c1` is reported as 537 µM (USP33 ZnF-UBD domain).

Excerpt of the above:
With `O=C(O)CCC(=O)Nc1cccc2ccccc12` the Kd was > 1000 µM (USP33 ZnF-UBD domain).
The Kd of `O=C(O)CCn1cnc2ccccc21` is reported as > 1000 µM (USP33 ZnF-UBD domain).
With `N[C@@H](Cc1ccc(O)c(I)c1)C(=O)O` the Kd was 410 ± 20 µM (Iodotyrosine deiodinase, split at 68–92 (IYD, Thermotoga neapolitana, UniProt B9K712); fluorescence quenching; 25 °C, oxidized enzyme).
For `O=C(O)CCC(=O)c1ccc2c(c1)CCC(=O)N2`, the Kd was > 1000 µM (USP33 ZnF-UBD domain).
